{"data": "Measurements gathered from unrelated publications", "target": "Hepatocyte growth factor receptor (MET, Homo sapiens, UniProt P08581)", "note": "Protocols differ between the studies behind these lines. Values joined by “and” are separate records of one study, mostly repeats; a detail may differ.", "sequence of UniProt P08581 (whole entry, looked up)": "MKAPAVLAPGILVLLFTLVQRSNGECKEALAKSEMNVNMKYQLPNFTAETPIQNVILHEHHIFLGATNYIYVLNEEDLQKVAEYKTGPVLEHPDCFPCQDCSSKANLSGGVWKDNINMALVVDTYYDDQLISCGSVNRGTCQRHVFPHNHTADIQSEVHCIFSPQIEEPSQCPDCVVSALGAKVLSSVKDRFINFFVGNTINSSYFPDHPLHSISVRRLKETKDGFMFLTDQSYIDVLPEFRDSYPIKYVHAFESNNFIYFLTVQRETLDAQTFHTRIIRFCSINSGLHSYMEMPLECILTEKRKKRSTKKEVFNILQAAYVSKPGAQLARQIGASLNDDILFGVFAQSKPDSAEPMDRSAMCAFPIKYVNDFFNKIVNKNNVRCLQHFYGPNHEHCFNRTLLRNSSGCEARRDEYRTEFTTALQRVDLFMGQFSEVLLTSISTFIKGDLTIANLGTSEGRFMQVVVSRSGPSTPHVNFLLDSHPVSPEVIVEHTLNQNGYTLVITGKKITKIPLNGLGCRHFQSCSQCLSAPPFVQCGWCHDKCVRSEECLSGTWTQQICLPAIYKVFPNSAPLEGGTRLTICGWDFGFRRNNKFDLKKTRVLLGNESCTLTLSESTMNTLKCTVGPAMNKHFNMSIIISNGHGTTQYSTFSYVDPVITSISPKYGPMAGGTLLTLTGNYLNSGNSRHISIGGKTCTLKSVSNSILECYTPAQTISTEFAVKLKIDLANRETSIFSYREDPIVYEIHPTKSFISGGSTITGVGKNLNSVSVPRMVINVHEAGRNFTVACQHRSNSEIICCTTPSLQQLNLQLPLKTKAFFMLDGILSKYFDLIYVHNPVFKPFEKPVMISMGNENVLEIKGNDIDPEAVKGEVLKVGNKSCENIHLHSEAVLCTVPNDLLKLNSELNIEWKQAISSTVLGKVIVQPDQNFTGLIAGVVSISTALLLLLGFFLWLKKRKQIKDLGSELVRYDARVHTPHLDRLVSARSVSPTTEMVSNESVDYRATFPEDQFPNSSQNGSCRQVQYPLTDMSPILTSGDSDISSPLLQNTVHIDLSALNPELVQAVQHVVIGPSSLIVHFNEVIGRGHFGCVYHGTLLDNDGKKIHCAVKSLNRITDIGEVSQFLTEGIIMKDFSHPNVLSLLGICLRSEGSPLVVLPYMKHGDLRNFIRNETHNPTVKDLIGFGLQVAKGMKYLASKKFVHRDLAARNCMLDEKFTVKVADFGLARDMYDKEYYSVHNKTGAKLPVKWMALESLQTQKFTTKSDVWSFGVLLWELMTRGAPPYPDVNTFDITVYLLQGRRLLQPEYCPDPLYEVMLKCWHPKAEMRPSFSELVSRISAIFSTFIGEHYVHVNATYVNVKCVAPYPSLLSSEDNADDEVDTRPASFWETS"}
{"SMILES": "COc1c(OCCCN2CCOCC2)ccc2c1N=C(NC(=O)c1cnc(N)nc1)N1CCN=C21", "assay": "kinase activity, inhibitor", "conditions": "1 µM", "scale": "relative to: untreated control", "quantity": "remaining activity", "result": "117%"}
{"SMILES": "COc1ccc(O)cc1-c1c[nH]c2ncc(-c3cncc(C(=O)N(C)C)c3)cc12", "assay": "binding, competition with immobilised ligand", "conditions": "0.2 µM", "quantity": "inhibition", "result": "11.8%"}
{"SMILES": "COc1ccc(C(=O)/C=C/c2ccccc2-c2c[nH]c3ccc(C#N)cc23)c(O)c1", "assay": "enzyme activity, inhibitor", "conditions": "20 µM", "quantity": "inhibition", "result": "20%"}
{"SMILES": "Cc1[nH]nc2c1N=C(c1ccccc1Cl)c1cnc(N3CCOCC3)cc1N2", "assay": "enzyme activity, inhibitor", "conditions": "0.5 µM", "quantity": "inhibition", "result": "5.1%"}
{"SMILES": "O=C(Cc1ccc(OCc2ccccc2)cc1)NC1(C(=O)O)CCN(C(=O)c2ccc(-c3cccc(Cl)c3)cc2)CC1", "assay": "enzyme activity, inhibitor", "conditions": "10 µM", "quantity": "activity vs control", "result": "144%"}
{"SMILES": "Cc1cnc2nc1Nc1cccc(c1)COC/C=C/COCc1cc(ccc1OCCN1CCOCC1)N2", "conditions": "concentration not given", "quantity": "percent of control", "result": "72%"}
{"SMILES": "Cc1cccc(O[C@H]2CCC[C@@H](C(C)CNCc3ccncc3)C2)c1 (relative stereo)", "assay": "kinase activity, kinome panel screening", "conditions": "1 µM", "quantity": "inhibition", "result": "-1%"}
{"SMILES": "O=C=[N][Ru-4]123([n]4c5ccc(O)cc5c5c6c(c7cc(F)c[n+]1c7c54)C(=O)NC6=O)[S+]1CC[S+]2CC[S+]3CC1 (centres unmarked)", "assay": "enzyme activity", "conditions": "100 nM, human enzyme, together with: 10 µM ATP", "scale": "relative to: untreated", "quantity": "remaining activity", "result": "132%"}
{"SMILES": "C=CC(=O)Nc1cccc(-c2cnc3[nH]cc(C(=O)NC(C)(C)C)c3n2)c1", "assay": "kinase activity", "conditions": "0.1 µM", "quantity": "inhibition", "result": "6% and 5%"}
{"SMILES": "NC(=O)C[C@H]1CCc2sc3ncnc(O[C@H]4CC[C@H](N5CCOCC5)CC4)c3c21", "assay": "enzyme activity, inhibitor", "conditions": "10 µM", "quantity": "inhibition", "result": "-8%"}
{"SMILES": "O=c1c(-c2ccc(Cl)c(CN3CCOCC3)c2)coc2cc(O)ccc12", "assay": "enzyme activity, inhibitor", "conditions": "1 µM", "quantity": "remaining activity", "result": "111%"}
{"note": "A few entries again:"}
{"SMILES": "NC(=O)C[C@H]1CCc2sc3ncnc(O[C@H]4CC[C@H](N5CCOCC5)CC4)c3c21", "assay": "enzyme activity, inhibitor", "conditions": "10 µM", "quantity": "inhibition", "result": "-8%"}
{"SMILES": "O=c1c(-c2ccc(Cl)c(CN3CCOCC3)c2)coc2cc(O)ccc12", "assay": "enzyme activity, inhibitor", "conditions": "1 µM", "quantity": "remaining activity", "result": "111%"}
